Experimental data gathered from unrelated publications.
Each numbered part is a random draw from the data of one study; scales do not carry over between parts.
Sequence of UniProt P22455 (whole entry, looked up): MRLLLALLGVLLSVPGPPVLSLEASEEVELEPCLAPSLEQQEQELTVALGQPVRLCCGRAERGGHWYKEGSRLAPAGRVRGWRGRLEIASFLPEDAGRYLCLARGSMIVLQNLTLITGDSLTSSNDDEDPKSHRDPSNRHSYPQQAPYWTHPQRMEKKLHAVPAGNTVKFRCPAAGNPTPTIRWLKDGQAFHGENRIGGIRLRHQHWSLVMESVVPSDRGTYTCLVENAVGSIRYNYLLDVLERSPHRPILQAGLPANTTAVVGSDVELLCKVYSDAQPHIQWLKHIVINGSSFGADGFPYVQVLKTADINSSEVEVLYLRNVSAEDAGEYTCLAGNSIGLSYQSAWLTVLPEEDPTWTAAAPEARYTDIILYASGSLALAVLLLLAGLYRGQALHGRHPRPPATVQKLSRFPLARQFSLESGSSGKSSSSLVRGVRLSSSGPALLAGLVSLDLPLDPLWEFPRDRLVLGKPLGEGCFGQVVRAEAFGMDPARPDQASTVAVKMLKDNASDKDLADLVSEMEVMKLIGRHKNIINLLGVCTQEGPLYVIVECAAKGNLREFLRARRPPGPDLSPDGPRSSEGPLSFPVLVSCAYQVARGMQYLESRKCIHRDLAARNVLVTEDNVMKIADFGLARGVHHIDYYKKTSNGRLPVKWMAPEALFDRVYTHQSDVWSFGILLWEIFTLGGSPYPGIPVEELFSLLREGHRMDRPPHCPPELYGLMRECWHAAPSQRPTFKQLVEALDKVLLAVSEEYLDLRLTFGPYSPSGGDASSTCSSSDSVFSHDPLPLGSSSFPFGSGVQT
Sequence of UniProt O60285 (whole entry, looked up): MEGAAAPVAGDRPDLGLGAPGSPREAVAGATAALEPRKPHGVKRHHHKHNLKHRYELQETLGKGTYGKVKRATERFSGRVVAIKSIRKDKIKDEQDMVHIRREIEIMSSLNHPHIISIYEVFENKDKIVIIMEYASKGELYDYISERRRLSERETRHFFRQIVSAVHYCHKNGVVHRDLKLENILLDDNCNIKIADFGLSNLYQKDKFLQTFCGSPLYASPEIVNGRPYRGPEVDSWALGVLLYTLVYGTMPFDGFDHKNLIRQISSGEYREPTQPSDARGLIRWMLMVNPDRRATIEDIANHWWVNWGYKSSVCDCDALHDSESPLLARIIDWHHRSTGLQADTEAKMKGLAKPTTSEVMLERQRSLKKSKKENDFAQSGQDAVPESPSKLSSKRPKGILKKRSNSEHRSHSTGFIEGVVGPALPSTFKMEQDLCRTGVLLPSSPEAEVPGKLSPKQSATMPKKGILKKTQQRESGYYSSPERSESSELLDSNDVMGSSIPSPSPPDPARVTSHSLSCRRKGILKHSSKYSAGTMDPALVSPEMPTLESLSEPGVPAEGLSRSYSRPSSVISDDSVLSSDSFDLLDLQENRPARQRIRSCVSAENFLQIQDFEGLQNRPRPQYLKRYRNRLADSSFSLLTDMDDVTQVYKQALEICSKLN
Sequence of UniProt Q9UPE1 (whole entry, looked up): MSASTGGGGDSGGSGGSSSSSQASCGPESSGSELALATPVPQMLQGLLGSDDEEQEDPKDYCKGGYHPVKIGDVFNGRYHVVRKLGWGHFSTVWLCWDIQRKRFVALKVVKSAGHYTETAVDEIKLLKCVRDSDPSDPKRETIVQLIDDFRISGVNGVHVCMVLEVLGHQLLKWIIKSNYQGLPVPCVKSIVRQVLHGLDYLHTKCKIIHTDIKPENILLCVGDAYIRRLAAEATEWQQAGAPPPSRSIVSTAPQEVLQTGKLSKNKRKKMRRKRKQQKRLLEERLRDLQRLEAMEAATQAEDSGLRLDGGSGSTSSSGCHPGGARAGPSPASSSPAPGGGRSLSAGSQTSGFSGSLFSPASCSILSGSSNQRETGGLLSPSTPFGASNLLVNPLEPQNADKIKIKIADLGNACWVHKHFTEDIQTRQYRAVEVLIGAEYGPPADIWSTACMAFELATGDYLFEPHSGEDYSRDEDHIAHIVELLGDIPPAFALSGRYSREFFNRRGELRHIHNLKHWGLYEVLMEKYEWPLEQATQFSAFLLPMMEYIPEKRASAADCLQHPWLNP
Sequence of UniProt Q9P1W9 (whole entry, looked up): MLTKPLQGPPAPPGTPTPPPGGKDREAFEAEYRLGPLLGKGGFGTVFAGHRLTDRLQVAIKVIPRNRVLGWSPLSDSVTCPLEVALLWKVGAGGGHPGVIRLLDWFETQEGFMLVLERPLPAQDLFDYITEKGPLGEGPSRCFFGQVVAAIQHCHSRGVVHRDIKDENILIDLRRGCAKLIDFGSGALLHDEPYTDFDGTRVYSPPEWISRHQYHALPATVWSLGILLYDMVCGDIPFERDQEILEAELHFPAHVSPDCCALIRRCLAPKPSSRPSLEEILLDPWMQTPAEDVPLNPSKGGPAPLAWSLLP

Block 1 — read-out: enzyme activity; mode: inhibitor; concentration: 0.5 µM; baseline: control
SMILES: CCn1cnc2c(Nc3cccc(Cl)c3)nc(N[C@H]3CCCC[C@H]3N)nc21
target | remaining activity
SRPK3 (Homo sapiens, UniProt Q9UPE1) | 94.9%
FLT3 (Homo sapiens, UniProt P36888) | 12.7%
EPHA7 (Homo sapiens, UniProt Q15375) | 87.6%
GRK2 (Homo sapiens, UniProt P25098) | 96.5%
RPS6KB1 (Homo sapiens, UniProt P23443) | 97.3%
PRKCE (Homo sapiens, UniProt Q02156) | 90.6%
EPHB2 (Homo sapiens, UniProt P29323) | 82.9%
PAK2 (Homo sapiens, UniProt Q13177) | 93.9%
NUAK1 (Homo sapiens, UniProt O60285) | 52.4%
PIM2 (Homo sapiens, UniProt Q9P1W9) | 111%
CSK (Homo sapiens, UniProt P41240) | 85.5%
FGFR4 (Homo sapiens, UniProt P22455) | 97.5%
PRKCG (Homo sapiens, UniProt P05129) | 95%
Aurora kinase C (AURKC, Homo sapiens, UniProt Q9UQB9) | 94.5%
GRK6 (Homo sapiens, UniProt P43250) | 99.6%
GSK3A (Homo sapiens, UniProt P49840) | 103%
SGK1 (Homo sapiens, UniProt O00141) | 120%
MYLK (Homo sapiens, UniProt Q15746) | 91%
CSF1R (Homo sapiens, UniProt P07333) | 94.2%

Block 2 — read-out: enzyme activity; mode: inhibitor; concentration: 77 µM
Target: DNA polymerase theta, ATPase domain (POLQ, Homo sapiens, UniProt O75417)
Sequence of UniProt O75417 (whole entry, unmodified, looked up): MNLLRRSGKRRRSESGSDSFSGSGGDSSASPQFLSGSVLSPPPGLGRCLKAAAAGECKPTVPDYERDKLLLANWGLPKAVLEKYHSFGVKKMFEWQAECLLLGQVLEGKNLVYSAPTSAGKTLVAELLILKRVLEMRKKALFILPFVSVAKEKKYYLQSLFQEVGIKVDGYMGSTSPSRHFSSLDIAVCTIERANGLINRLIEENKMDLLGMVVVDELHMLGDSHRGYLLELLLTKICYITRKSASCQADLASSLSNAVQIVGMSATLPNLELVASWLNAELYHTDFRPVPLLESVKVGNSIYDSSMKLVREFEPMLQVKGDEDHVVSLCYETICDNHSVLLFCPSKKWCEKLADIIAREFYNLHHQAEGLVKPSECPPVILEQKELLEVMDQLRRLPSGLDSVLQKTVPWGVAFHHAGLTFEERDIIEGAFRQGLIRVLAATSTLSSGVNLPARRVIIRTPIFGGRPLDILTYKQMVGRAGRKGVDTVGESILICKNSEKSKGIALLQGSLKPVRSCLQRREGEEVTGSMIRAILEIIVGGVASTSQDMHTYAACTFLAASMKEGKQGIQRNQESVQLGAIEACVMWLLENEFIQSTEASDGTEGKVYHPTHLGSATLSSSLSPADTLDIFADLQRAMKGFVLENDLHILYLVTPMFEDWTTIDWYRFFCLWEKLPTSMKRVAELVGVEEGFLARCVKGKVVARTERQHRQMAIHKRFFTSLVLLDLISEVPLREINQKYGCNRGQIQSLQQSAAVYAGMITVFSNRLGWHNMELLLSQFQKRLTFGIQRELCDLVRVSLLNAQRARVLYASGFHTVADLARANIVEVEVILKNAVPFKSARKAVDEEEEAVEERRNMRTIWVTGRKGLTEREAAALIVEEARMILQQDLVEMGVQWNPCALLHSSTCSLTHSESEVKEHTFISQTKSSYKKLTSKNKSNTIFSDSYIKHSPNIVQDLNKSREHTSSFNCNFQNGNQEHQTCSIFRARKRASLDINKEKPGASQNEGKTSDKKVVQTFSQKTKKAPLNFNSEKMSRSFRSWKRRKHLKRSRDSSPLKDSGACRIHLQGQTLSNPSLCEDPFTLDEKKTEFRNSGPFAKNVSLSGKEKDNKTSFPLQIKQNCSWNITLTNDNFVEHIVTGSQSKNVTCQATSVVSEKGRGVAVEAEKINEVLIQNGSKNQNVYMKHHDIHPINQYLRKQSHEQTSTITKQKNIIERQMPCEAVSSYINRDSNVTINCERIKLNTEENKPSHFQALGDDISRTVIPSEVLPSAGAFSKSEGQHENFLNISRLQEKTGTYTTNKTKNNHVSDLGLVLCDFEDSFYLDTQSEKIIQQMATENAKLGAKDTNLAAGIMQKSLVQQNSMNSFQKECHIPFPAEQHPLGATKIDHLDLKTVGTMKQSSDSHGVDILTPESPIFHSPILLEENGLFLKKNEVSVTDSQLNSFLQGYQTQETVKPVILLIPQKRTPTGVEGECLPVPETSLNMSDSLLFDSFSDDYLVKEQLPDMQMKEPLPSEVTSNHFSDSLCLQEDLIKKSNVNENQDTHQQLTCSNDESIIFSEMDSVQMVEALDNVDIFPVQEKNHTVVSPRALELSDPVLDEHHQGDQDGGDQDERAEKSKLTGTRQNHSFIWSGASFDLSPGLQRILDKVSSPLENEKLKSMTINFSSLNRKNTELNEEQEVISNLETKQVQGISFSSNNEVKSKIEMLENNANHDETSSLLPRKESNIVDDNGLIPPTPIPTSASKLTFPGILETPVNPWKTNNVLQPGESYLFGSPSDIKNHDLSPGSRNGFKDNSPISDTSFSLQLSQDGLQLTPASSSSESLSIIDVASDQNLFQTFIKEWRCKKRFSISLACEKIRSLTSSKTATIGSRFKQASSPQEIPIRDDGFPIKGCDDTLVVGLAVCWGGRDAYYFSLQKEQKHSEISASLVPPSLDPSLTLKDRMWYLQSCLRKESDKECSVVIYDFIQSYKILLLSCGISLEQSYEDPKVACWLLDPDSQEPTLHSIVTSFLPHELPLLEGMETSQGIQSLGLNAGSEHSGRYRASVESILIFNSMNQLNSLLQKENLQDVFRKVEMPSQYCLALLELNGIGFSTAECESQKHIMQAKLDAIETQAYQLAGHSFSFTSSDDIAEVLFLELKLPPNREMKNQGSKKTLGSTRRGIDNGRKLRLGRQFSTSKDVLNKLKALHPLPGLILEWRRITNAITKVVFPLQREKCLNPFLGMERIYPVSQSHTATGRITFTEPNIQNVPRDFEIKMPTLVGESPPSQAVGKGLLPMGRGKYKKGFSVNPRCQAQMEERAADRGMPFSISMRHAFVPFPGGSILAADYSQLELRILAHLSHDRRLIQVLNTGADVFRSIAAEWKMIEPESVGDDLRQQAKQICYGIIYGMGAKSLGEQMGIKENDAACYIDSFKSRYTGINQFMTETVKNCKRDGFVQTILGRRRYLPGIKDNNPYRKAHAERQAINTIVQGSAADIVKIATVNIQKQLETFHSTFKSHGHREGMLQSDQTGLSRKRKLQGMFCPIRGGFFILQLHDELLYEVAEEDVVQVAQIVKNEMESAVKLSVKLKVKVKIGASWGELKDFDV
Compound | remaining activity
c1ccc(CCCN2CCN(CCOC(c3ccccc3)c3ccccc3)CC2)cc1 | 99.2%
CC(C)[C@@]1(NC(=O)[C@@H]2C[C@@H]3c4cccc5[nH]cc(c45)C[C@H]3N(C)C2)O[C@@]2(O)[C@@H]3CCCN3C(=O)[C@H](Cc3ccccc3)N2C1=O | 101%
COc1cc2c(cc1O)C[C@H]1c3c(cc(O)c(OC)c3-2)CCN1C | 99%
c1cncc([C@@H]2CCCCN2)c1 | 100%
CCNC1(c2cccs2)CCCCC1=O (stereo not drawn) | 92.8%
NCC(O)c1cc(O)c(O)cc1F (stereo not drawn) | 99.8%
C=C[C@H]1CN2CC[C@H]1C[C@@H]2[C@@H](O)c1ccnc2ccccc12 | 106%
C=C1[C@H]2C[C@@]3([C@@H]1O)[C@@H](C[C@@H]2O)[C@]12[C@@H]4C[C@H]3[C@H]1N(CC)C[C@]4(C)CC[C@@H]2O | 101%
C[N+]1([O-])[C@@H]2CC(OC(=O)[C@H](CO)c3ccccc3)C[C@H]1[C@@H]1O[C@@H]12 (stereo partly drawn) | 91.7%
COC(=O)N1CCN(C(=O)Cc2ccc(Cl)c(Cl)c2)C(CN2CCCC2)C1 (stereo not drawn) | 112%
CN1[C@@H]2CC(O)C[C@H]1[C@@H]1O[C@@H]12 (stereo partly drawn) | 94.5%
CN(C(=O)Cc1ccc(Cl)c(Cl)c1)C(CN1CCCC1)c1cccc(OCC(=O)O)c1 (stereo not drawn) | 100%
C[C@H]1O[C@@H](O[C@H]2CC[C@]3(C=O)[C@H]4CC[C@]5(C)[C@@H](C6=CC(=O)OC6)CC[C@]5(O)[C@@H]4CC[C@]3(O)C2)C[C@H](O)[C@@H]1O | 96.8%
C#C[C@]1(O)CC[C@H]2[C@@H]3CCC4=Cc5nc6nc7ccccc7n6cc5C[C@]4(C)[C@H]3CC[C@@]21C | 102%
C[C@@H]1NCCc2cc(O)c(O)cc21 | 98.9%
CC1=NN=C(c2ccc(N)cc2)c2cc3c(cc2C1)OCO3 | 95.2%
CC1=NCCc2c1[nH]c1cc(O)ccc21 | 101%
O=C1C=CC[C@@H]2[C@H]3CCCN4CCC[C@@H](CN12)[C@@H]34 | 105%
C(#CCN1CCCC1)CN1CCCC1 | 104%
CN1CCC2=C[C@H](O)[C@H]3OC(=O)c4cc5c(cc4[C@H]3[C@@H]21)OCO5 | 101%
CN1[C@@H]2CC[C@H]1C[C@@H](OC(c1ccccc1)c1ccccc1N)C2 (stereo partly drawn) | 98.8%
CC(=O)O[C@H]1C[C@H](O[C@H]2[C@@H](O)C[C@H](O[C@H]3[C@@H](O)C[C@H](O[C@H]4CC[C@@]5(C)[C@H](CC[C@@H]6[C@@H]5C[C@@H](O)[C@]5(C)[C@@H](C7=CC(=O)OC7)CC[C@]65O)C4)O[C@@H]3C)O[C@@H]2C)O[C@H](C)[C@H]1O[C@@H]1O[C@H](CO)[C@@H](O)[C@H](O)[C@H]1O | 111%

Block 3 — cell line: HaCaT; concentration: 100 µM; time: 36 h
Structure (SMILES) | viability
CCCCCCC(=O)O[C@H]1CC[C@H]2[C@@H]3CCC4=CC(=O)CC[C@]4(C)[C@H]3CC[C@]12C | 50.3%
CCN(CC)C(C)C(=O)c1ccccc1 (stereo not drawn) | 89.7%
CCC1(c2ccc(N)cc2)CCC(=O)NC1=O (stereo not drawn) | 85.4%
O=P1(N(CCCl)CCCl)NCCCO1 (stereo not drawn) | 96.9%
Oc1cccc2cccnc12 | 29.4%
Cc1ccc(/N=C/N(C)/C=N/c2ccc(C)cc2C)c(C)c1 | 8.37%
NCC(CC(=O)O)c1ccc(Cl)cc1 (stereo not drawn) | 82.8%
CC(C)C(Br)C(=O)NC(N)=O (stereo not drawn) | 114%

Mixed results — concentration: 1 µM
SMILES | target or system | read-out | method | setting | baseline | endpoint | value
CN[C@@H]1C[C@H]2O[C@@](C)([C@@H]1OC)n1c3ccccc3c3c4c(c5c6ccccc6n2c5c31)C(=O)NC4 | sample D normal colon organoid | – | CellTiter-Glo | mean of replicates | DMSO | viability | 0.9%
O=C(Nc1cccnn1)N1CC(C/C=C/c2cncc(Oc3ccc(C(F)(F)F)cn3)n2)C1 | CDPK1 (Plasmodium falciparum, UniProt P62344) | cell-free assay | competition with immobilised ligand | – | – | remaining binding | 99%

Repeated from above (block 3):
Structure (SMILES) | viability
Oc1cccc2cccnc12 | 29.4%
CCC1(c2ccc(N)cc2)CCC(=O)NC1=O (stereo not drawn) | 85.4%
O=P1(N(CCCl)CCCl)NCCCO1 (stereo not drawn) | 96.9%
CCCCCCC(=O)O[C@H]1CC[C@H]2[C@@H]3CCC4=CC(=O)CC[C@]4(C)[C@H]3CC[C@]12C | 50.3%
NCC(CC(=O)O)c1ccc(Cl)cc1 (stereo not drawn) | 82.8%
CC(C)C(Br)C(=O)NC(N)=O (stereo not drawn) | 114%
CCN(CC)C(C)C(=O)c1ccccc1 (stereo not drawn) | 89.7%
Cc1ccc(/N=C/N(C)/C=N/c2ccc(C)cc2C)c(C)c1 | 8.37%
